Published values gathered from unrelated publications.
A part holds a random share of what one study measured. Substitutions count along the parent as printed.

Sample 1
Target: CCNF, cyclin fold, Cln2 fusion (human)
Technique: yeast growth competition, sequencing
Matrix: yeast
Setting: strong parent motif
Relative to: not given
Reading: higher = stronger binding
Measurement: normalised enrichment score
Starting sequence: INSM1 docking peptide (human); PKAIRKLHFEDEV
Variant = PKAIYKLHFEDEV [R5Y]; value = 0.338
Variant = PKAIRKLHFEDTV [E12T]; value = 7.67
Variant = PQAIRKLHFEDEV [K2Q]; value = 7.23
Variant = PKAIRKKHFEDEV [L7K]; value = 0.975
Variant = PKAIRKLHFEDWV [E12W]; value = 7.81
Variant = PKAIRKLHFIDEV [E10I]; value = 7.26
Variant = PKAIRKLHFEPEV [D11P]; value = 7.83

Sample 2
Target: RNA binding protein fox-1 homolog 2, RRM domain, GST-SBP tag (RBFOX2, Homo sapiens, UniProt O43251-10, residues 100-194)
Technique: RNA Bind-n-Seq
Molecule type: RNA
Matrix: in vitro
Concentration: 365 nM
Setting: natural RNA segment, single round, ends assumed
Relative to: no-protein control
Reading: higher = stronger binding
Measurement: RBNS enrichment (R)
Shared flanks, not repeated: GGGAGUUCUACAGUCCGACGAUC … UGGAAUUCUCGGGUGCCAA
Construct (chain): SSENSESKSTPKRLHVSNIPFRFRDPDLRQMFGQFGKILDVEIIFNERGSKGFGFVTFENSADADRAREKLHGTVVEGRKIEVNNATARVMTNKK
Sequence = AAGUCUUGUACUCAAUGACUUUUGUCAUGACAUUUUGUUCUACUUAUACUGUAAAUUAUGCAUUAUAAAGAGUUCAUUUAAGGAAAAUUACUUGGUACAAUAAUUAUUGU; value = 0.305
Sequence = GGGUUUUGAUUUCAGUUUUCCCCCUUUCUCUGCCCUGGGGGCUGGGCUCCUUAUUGCUGCUUAGGCCUAGAAAGUUUAAGUAUGUGGAAGAGGAGAGUGAGUUGUAAGUU; value = 0.576
Sequence = CCUGUUGUGUUCCAUGUGCUUUCACCUCUGCCUCAUCUUUCCUCCCGUCCCUGCCCCGCCACCUCCCCAAAGAAUUGAAACGUCAGCUCAGGAUAUGGGGCCAAUCUCUG; value = 0.316
Sequence = AGGGCUGGCUUCGCCCGCGUUCUCGUCGUCGGAUCAAGGAGCGCGGCGGCGUUUUGGACCCGCGCUCCCAUCCCCCACCUUCCCGGGCCGGGGACCCACUCUGCCCAGCC; value = 0.31
Sequence = GGAGCUGAGGUCAGCAAGCCAGUGGUUCUUAAGAGCUGAACCUCUGGCUUUACUGUUGGAAGUUGUCUAUUUCAACCUCAGAGUUUCCUAAUAUGGCGCUCCUGAUCUAU; value = 0.282
Sequence = GACAGUUUUGAAAGACAUUAAUUCUCAUUUUCUUCUAGUCAGGAGUAAUACAAGCAAACAAGUGUCCGUUUUGAAUUCUGAUUUGUAAUCUGAAUACUAAACAUAUUAGA; value = 0.303
Sequence = UUCUGCGCUGACUGUGACAUUGGAACGUGGCCUUCCUGUCACCCCCUCCGUGCCACGCACUGAAGGCCACCCCCACCCACCUGGGAAACUAAGAACUGGAUAUUUUGCCU; value = 0.883
Sequence = UGCUAGAAUCACUGCCGCUGUGCUUUCGUGGAAAUGACAGUUCCUUGUUUUUUUUGUUUCUGUUUUUGUUUUACAUUAGUCAUUGGACCACAGCCAUUCAGGAACUACCC; value = 0.709
Sequence = UUCUGCCGCCCUUCCUGAGACCUUAGAAACCAGAAGAGCCAUACAGUCAGUGGAAGGCGGGGGGGCCCUGGCCUCUGCACCGGGAUCCCAGUGGGAACCUUCAUGCCUUA; value = 0.407
Sequence = UGGCAACUGUGAGUCCCUGCUUCCCGACACCAGCCUCAUGGAAUAUGCAACAACUCCUGUACCCCAGUCCACGGUGUUCUGGCAGCAGGGACACCUGGGCCAAUGGGCCA; value = 0.686
Sequence = CCCUAACCUGUCUGUCUCCGUGGAUGCAUCCUAACCCUAAGGAAAAUUCCCCAGGCUGUGAUCUACCCUAGAGAAGGCUCGCUCCCUGCCUACUGGCUCACAAAUGAGGA; value = 0.378
Sequence = CCCUCCCUCCGCUGAGCAUGUGAUGUCACCCCCUCUGUUUGGAGCUUCUUUAGGUCAAAGAAAUCAAUUGCUUUCCAUAGAGCUGAUACUGUGAACAUUCGAAUGCAUCU; value = 4.37

Sample 3
Target: Sal-like protein 4, full length isoform B (SALL4, Homo sapiens, UniProt Q9UJQ4-2, residues 1-616)
Technique: universal PBM
Molecule type: double-stranded DNA, one strand shown
Matrix: in vitro
Concentration: not given
Setting: 8-mer, flanks averaged, mean of replicates
Reading: higher = stronger binding
Measurement: E-score
Target sequence (chain): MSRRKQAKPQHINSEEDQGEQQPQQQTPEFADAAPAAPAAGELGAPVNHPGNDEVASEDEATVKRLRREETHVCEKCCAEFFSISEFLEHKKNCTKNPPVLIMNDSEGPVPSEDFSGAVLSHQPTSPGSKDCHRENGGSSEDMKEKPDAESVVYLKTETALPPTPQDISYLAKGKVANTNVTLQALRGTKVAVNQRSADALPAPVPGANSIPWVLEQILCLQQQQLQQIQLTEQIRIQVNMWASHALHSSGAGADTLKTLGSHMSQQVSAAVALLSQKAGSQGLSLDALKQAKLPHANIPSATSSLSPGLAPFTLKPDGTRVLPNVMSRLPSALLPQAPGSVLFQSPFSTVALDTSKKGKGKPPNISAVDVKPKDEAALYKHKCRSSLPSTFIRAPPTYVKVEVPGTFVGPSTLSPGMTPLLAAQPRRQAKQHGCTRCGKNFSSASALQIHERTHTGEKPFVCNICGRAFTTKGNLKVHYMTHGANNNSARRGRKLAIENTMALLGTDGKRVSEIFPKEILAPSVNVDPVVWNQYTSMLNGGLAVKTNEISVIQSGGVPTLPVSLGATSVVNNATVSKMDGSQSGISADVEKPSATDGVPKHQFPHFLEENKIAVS
Sequence = GTTCCATA; value = 0.188
Sequence = AGCGACTG; value = -0.0543
Sequence = ATTTATGG; value = 0.331
Sequence = GCTAGTTA; value = 0.0858
Sequence = CGCGCTGC; value = -0.266
Sequence = CTGTGAGC; value = -0.0813
Sequence = ACGGTCAT; value = -0.0333
Sequence = ACTAGTCT; value = 0.0703
Sequence = AGTGAAAA; value = 0.18
Sequence = ATTATCTA; value = 0.29
Sequence = CACATTGG; value = 0.013
Sequence = AACCTCTC; value = -0.0427
Sequence = AGCCACCA; value = -0.0938
Sequence = AACCAATC; value = -0.0377
Sequence = ACCCGTTC; value = -0.0893
Sequence = CTAACTAC; value = -0.0762

Further values, each from its own experiment
Molecule = PhoQ, residues 284 288 289 292 302 303 SIHLQL; target = PhoP, residues 12 14 15 18 19 QWHVF (Escherichia coli, UniProt P23836); assay = Sort-seq, measured: YFP reporter; test system = E. coli; setting = PhoQ-PhoP variant library, added: 10 µM Mg2+; scale = relative to: high Mg2+ state, higher = stronger signaling; measurement = fold induction; value = 8.81

Some of these lines once more (sample 3):
Sequence = AGCGACTG; value = -0.0543
Sequence = ATTTATGG; value = 0.331
Sequence = GCTAGTTA; value = 0.0858
Sequence = CGCGCTGC; value = -0.266
Sequence = CTGTGAGC; value = -0.0813
Sequence = ACGGTCAT; value = -0.0333
